Measured values gathered from unrelated publications.
Numbered parts are unrelated; each lists some results of a single study. Several values in a cell are separate wells, animals, samples, runs or records. Numbers after ± are the reported error.
Chain of UniProt O75417 (whole entry, unmodified, looked up): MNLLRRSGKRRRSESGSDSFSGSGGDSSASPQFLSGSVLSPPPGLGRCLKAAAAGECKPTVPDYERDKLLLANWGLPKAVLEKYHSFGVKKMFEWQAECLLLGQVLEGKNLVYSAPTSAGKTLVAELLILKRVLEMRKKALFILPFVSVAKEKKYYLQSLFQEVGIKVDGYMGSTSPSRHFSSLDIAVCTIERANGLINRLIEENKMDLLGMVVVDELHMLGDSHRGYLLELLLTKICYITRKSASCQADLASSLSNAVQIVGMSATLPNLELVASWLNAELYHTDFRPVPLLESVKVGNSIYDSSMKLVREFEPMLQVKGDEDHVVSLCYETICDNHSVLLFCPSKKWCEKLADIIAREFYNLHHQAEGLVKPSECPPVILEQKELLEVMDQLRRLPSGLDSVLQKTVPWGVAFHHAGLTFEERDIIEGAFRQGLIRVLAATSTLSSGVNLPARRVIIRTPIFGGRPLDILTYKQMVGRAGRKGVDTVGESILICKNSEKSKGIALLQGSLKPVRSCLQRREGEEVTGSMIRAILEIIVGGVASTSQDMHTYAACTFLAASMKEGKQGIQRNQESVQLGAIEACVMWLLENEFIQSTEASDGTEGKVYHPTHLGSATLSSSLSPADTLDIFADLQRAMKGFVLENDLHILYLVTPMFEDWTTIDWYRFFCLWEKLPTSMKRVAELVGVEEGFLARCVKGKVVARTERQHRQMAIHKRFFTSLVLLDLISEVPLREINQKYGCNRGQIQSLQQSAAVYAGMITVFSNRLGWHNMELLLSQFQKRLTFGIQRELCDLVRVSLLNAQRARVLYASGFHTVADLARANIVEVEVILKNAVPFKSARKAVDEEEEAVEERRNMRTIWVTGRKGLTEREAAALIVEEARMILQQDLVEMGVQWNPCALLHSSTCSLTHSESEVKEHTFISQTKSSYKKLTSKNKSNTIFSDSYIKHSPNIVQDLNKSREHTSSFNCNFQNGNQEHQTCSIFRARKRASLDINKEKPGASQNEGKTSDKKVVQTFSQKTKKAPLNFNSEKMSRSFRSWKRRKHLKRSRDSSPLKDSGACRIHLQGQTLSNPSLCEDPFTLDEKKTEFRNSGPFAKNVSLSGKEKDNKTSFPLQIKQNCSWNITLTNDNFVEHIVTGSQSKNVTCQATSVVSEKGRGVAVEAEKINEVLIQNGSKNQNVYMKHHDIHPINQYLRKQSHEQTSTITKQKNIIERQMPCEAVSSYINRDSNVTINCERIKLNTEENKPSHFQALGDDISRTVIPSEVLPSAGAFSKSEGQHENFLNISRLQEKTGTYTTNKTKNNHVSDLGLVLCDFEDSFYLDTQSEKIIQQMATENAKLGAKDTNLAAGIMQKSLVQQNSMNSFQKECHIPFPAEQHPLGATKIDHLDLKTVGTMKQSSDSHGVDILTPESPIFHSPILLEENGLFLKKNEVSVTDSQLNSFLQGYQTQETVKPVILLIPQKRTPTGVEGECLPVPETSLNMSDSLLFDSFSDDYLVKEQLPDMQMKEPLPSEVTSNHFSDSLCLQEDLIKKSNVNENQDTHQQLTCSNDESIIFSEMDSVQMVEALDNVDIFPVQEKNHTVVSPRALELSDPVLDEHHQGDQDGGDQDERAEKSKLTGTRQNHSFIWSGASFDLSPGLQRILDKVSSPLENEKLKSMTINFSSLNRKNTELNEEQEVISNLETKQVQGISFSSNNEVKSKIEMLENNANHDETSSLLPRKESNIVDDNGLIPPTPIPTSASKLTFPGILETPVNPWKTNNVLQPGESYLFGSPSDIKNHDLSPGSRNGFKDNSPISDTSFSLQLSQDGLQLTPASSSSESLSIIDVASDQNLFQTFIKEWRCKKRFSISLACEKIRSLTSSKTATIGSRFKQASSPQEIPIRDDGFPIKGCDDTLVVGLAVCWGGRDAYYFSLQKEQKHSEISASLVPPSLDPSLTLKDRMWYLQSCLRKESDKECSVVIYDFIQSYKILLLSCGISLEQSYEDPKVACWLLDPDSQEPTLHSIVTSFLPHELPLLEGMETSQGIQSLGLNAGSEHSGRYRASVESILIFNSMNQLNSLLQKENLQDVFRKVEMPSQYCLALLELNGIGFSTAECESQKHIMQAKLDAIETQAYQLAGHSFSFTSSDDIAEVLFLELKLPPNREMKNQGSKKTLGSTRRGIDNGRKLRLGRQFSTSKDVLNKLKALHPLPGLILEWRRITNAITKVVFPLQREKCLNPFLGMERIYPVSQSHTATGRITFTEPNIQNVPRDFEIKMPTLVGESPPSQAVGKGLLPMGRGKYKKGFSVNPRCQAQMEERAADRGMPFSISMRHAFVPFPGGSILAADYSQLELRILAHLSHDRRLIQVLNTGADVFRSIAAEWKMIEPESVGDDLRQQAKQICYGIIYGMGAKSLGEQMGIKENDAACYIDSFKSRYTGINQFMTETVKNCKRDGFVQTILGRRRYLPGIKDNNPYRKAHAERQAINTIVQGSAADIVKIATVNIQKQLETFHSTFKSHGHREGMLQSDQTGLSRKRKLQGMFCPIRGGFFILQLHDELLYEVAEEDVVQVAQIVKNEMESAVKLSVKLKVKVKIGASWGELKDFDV

Study 1
Cell line: HEK-293T/ACE2
Tested at: concentration not given
Time: 16 (unit not given)
Reference: vehicle
| SMILES | viability |
| --- | --- |
| COc1cc([C@@H]2c3cc4c(cc3[C@@H](O[C@@H]3O[C@@H]5CO[C@@H](C)O[C@H]5[C@H](O)[C@H]3O)[C@H]3COC(=O)[C@H]23)OCO4)cc(OC)c1O | 81.2% |
| CC(CCc1ccccc1)NCC(O)c1ccc(O)c(C(N)=O)c1 (centres unmarked) | 104% |
| CC[C@@H]([C@H](C)O)n1ncn(-c2ccc(N3CCN(c4ccc(OC[C@@H]5CO[C@@](Cn6cncn6)(c6ccc(F)cc6F)C5)cc4)CC3)cc2)c1=O | 98.7% |

Study 2
Target: Replicase polyprotein 1ab, nsp13 helicase (rep, Severe acute respiratory syndrome coronavirus 2, UniProt P0DTD1)
Action: inhibitor
Tested at: 20 µM
| Compound | inhibition [%] |
| --- | --- |
| CCOC(=O)c1ncc2[nH]c3ccc(OCc4ccccc4)cc3c2c1COC | 4.46 |
| CO/N=C(\C(=O)N[C@@H]1C(=O)N2C(C(=O)O)=C(CSc3nc(C)c(CC(=O)O)s3)CS[C@H]12)c1csc(N)n1 | 64.5 |
| CCOC(=O)[C@H](CCc1ccccc1)N[C@H]1CS[C@H](c2cccs2)CN(CC(=O)O)C1=O | 4.32 |
| Cc1nn(-c2ccccc2)c(C)c1/C=N/N1CCN(Cc2ccccc2)CC1 | 4.41 |
| CN(C)CCCCC(=O)Nc1ccc(NC(=S)NC(=O)c2ccc(C(C)(C)C)cc2)cc1 | 67.2 |
| NC1CCN(c2cccc(Cl)n2)CC1 | 3.71 |
| CC(C)CN(C[C@@H](O)[C@H](Cc1ccccc1)N(C(=O)CNCc1cccc(F)c1)[C@H](C(N)=O)C(C)(C)C)S(=O)(=O)c1cccc(N)c1 | 1.94 |
| CC(C)=CCOc1ccc(/C=C/C(=O)c2ccc(OCC=C(C)C)cc2OCC(=O)O)cc1 | 5.74 |
| C=CC(=O)Nc1cccc(Oc2nc(Nc3ccc(N4CCN(C)CC4)cc3)ncc2Cl)c1 | 27.3 |
| CN1C(C(=O)Nc2ccccn2)=C(O)c2ccccc2S1(=O)=O | 5.67 |
| NC1(c2ccc(-c3nc4ccn5c(=O)[nH]nc5c4cc3-c3ccccc3)cc2)CCC1 | 4.72 |
| N[C@@H]1C[C@H]1c1ccccc1 (racemic) | -0.3 |
| Oc1ccc2c3c1O[C@H]1c4oc5ccccc5c4C[C@@]4(O)[C@@H](C2)N(CC2CC2)CC[C@]314 | -1.6 |
| CN1C(=O)c2c(nn(Cc3ccc(-c4cccc(F)n4)cc3)c2Nc2ccccc2)N2C1=N[C@@H]1CCC[C@@H]12 | 8.29 |
| CCOC(=O)c1ccc(OC(=O)CCCCCNC(=N)N)cc1 | 4.68 |
| CCCC(C)NC(=O)c1ccc(Cl)c(Cl)c1 (centres unmarked) | 2.52 |
| COc1cc([C@@H]2c3cc4c(cc3[C@H](O)[C@H]3COC(=O)[C@H]23)OCO4)cc(OC)c1OC | 2.22 |
| Cc1cc(C(=O)NOCCO)c(Nc2ccc(I)cc2F)n(C)c1=O | 8.56 |
| COc1ccc(NS(=O)(=O)c2sc3ccc(Cl)cc3c2C)cc1N1CCNCC1 | 5.7 |
| CC[C@@H]([C@H](C)O)n1ncn(-c2ccc(N3CCN(c4ccc(OC[C@@H]5CO[C@@](Cn6cncn6)(c6ccc(F)cc6F)C5)cc4)CC3)cc2)c1=O | 10.7 |
| C[C@@H]1CC[C@@]2(OC1)O[C@H]1C[C@H]3[C@@H]4CC=C5C[C@@H](O)CC[C@]5(C)[C@H]4CC[C@]3(C)[C@H]1[C@@H]2C | 2.68 |
| CCC/C=C1\OC(=O)C2=C1CCC=C2 | 4.53 |
| C/C(=C\C(N)C(=O)O)CP(=O)(O)O (centres unmarked) | 3.51 |
| CCS(=O)(=O)N(C)[C@H]1c2cc(C#N)ccc2OC(C)(C)[C@@H]1O | -0.44 |
| CS(=O)(=O)OCCCCOS(C)(=O)=O | 1.78 |

Study 3
Target: Replicase polyprotein 1ab, main protease (rep, Severe acute respiratory syndrome coronavirus 2, UniProt P0DTD1)
Effect on: enzyme activity
Action: inhibitor
Tested at: 20 µM
Setting: hit confirmation
| SMILES | inhibition |
| --- | --- |
| C=C1C(=O)O[C@H]2[C@H]1CC/C(C)=C\CC[C@@]1(C)O[C@@H]21 | 3.5% |
| C[C@@H](CN1CC(=O)NC(=O)C1)N1CC(=O)NC(=O)C1 | 98.6% |
| Oc1cc(CNC(=S)/C=C/c2cc(O)c(O)c(Br)c2)cc(O)c1O | 78.1% |

Single results of other studies
Polyprotein P1234 nsP2 protease domain: Polyprotein P1234, nsP2 protease domain (Chikungunya virus, UniProt Q5XXP4)
Chain of UniProt Q5XXP4 (whole entry, looked up): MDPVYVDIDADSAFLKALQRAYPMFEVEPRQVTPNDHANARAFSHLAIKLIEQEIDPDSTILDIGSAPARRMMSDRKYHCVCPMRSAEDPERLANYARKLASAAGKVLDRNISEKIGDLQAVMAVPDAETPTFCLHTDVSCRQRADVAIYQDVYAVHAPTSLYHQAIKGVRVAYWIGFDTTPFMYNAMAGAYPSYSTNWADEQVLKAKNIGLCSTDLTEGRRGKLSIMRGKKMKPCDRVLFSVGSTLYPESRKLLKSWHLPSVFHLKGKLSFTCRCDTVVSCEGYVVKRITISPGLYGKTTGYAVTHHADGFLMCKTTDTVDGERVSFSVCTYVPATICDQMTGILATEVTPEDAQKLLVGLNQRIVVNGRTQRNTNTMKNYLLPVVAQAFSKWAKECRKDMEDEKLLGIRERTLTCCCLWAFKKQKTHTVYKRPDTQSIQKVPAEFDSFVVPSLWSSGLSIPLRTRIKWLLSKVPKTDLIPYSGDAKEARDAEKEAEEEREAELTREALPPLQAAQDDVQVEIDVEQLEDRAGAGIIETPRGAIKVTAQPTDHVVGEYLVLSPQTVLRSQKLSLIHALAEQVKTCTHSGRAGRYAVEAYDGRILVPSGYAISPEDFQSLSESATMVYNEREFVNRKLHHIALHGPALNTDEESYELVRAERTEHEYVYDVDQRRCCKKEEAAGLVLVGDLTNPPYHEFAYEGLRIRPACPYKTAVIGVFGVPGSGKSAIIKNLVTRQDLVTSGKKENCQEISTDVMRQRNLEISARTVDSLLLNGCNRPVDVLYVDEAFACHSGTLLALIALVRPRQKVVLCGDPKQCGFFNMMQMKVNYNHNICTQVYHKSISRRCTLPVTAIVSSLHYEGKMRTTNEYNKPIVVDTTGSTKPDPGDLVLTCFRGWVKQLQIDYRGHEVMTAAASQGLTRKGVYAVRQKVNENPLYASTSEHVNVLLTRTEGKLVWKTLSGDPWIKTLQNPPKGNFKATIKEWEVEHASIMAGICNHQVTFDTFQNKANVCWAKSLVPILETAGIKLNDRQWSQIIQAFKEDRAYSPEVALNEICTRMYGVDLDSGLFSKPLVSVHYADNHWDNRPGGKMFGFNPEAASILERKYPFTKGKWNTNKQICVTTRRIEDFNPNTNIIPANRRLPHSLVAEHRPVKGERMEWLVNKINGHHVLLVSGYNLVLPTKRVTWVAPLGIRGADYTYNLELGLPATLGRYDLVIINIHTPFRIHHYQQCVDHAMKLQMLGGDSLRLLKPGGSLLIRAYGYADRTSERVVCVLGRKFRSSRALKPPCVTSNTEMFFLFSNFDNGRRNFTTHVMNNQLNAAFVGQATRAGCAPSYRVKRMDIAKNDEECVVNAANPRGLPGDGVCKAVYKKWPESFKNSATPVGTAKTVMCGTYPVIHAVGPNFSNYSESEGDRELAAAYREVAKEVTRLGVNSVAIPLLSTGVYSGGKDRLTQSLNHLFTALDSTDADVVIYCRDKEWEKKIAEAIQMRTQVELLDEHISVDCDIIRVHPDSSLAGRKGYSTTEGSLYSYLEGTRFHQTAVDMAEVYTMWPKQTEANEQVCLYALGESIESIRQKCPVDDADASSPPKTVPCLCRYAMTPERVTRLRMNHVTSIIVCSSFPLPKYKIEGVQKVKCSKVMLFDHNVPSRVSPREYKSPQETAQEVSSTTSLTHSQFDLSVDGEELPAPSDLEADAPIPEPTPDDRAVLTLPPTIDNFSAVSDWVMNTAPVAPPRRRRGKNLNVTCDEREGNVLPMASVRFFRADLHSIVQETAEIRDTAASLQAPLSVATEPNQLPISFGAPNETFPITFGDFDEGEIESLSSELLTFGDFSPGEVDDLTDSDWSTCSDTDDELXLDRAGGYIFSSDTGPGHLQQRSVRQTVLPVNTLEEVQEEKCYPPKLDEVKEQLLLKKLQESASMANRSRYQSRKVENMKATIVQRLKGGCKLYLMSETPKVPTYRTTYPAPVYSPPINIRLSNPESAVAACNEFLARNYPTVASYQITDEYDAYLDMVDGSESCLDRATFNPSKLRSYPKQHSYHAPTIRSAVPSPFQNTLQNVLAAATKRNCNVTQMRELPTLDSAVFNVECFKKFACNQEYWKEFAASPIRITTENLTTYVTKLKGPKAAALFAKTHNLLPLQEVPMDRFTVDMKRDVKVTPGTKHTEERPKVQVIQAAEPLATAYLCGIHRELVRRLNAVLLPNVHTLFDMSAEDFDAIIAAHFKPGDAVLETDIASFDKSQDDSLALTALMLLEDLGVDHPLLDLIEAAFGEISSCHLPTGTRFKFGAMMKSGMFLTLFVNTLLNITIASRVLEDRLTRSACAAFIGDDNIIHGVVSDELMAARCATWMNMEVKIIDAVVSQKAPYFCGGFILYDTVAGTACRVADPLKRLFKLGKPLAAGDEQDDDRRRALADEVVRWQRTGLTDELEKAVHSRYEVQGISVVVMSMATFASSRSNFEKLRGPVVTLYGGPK
| SMILES | target or system | test | system | conditions | scale | endpoint | result |
| --- | --- | --- | --- | --- | --- | --- | --- |
| CC(C)CC(NC(=O)OCc1ccccc1)C(=O)NC(C(=O)NCC(=O)C=[N+]=[N-])C(C)C (centres unmarked) | SARS-CoV-2 | viral replication | 293T-ACE2, USA-WA1/2020 |  |  | EC90 | 251 nM |
| C[C@@H]1O[C@@H](O[C@H]2CC[C@]3(C=O)[C@H]4CC[C@]5(C)[C@@H](C6=CC(=O)OC6)CC[C@]5(O)[C@@H]4CC[C@]3(O)C2)[C@H](O)[C@H](O)[C@H]1O | Calcium/calmodulin-dependent protein kinase type II subunit alpha (CAMK2A, Homo sapiens, UniProt Q9UQM7) | enzyme activity, inhibitor |  | 10 µM |  | inhibition | -3% |
| O=c1ccn([C@@H]2O[C@](F)(CO)[C@@H](O)[C@H]2O)c(=O)[nH]1 | Mammarenavirus lujoense | viral replication | HeLa |  |  | EC50 | 290 nM |
| Cn1cnc(Cn2c(=O)[nH]/c(=N\c3cc4cn(C)nc4cc3Cl)n(Cc3cc(F)c(F)cc3F)c2=O)n1 |  |  | human, moderate renal impairment | oral, 375 mg |  | treatment-related TEAE, Severe severity | 0% |
| COc1ccc(-n2nc(C(F)(F)F)cc2-c2ccc(Cl)cc2)cc1 | mouse MPNST tumor cells | high-content nuclear imaging, refers to: cell number |  | 10 µM, 12 h, mean of 2 replicates | reference: plate mean, higher = more cells | nuclei count | 0.484 z-score |
| CO[C@H]1CC[C@H](n2c([C@@H]3CCCC(=O)N3c3ccc(F)c(F)c3)nc3cc(-c4c(C)noc4C)ccc32)CC1 (relative stereo) | SARS-CoV-2 | viral replication, GFP plate reader screen | BetaCov/Belgium/GHB-03021/2020 | cell-based |  | EC50 | > 100000 nM |
| CN1c2ccccc2CNc2cncnc21 | SARS-CoV-2 | viral replication | Vero E6, USA-WA1/2020 | 2.5 µM |  | inhibition | 42.1% |
| CC(C)[C@]12O[C@H]1[C@@H]1O[C@]13[C@]1(O[C@H]1C[C@H]1C4=C(CC[C@@]13C)C(=O)OC4)[C@@H]2O | mouse MPNST tumor cells | high-content nuclear imaging, refers to: cell number |  | 10 µM, 12 h, mean of 2 replicates | reference: plate mean, higher = more cells | nuclei count | 0.991 z-score |
| COc1ccc2nc3c(c(N)c2c1)CCCC3 | SARS-CoV-2 | viral replication, high-content imaging screen | BetaCov/Belgium/GHB-03021/2020 | cell-based |  | EC50 | > 25100 nM |
| CCOC(=O)CC(SP(=S)(OC)OC)C(=O)OCC (centres unmarked) | mouse MPNST tumor cells | high-content nuclear imaging, refers to: cell number |  | 10 µM, 12 h, mean of 2 replicates | reference: plate mean, higher = more cells | nuclei count | -0.36 z-score |
| NC/C(=C\F)COc1cccc(Cn2c(=S)[nH]c(=O)c3[nH]cnc32)c1 | CHRNA1/CHRNG/CHRND (Homo sapiens, UniProt P02708+P07510+Q07001) | radioligand binding |  | 10 µM, added: bungarotoxin |  | inhibition | < 50% |
| CS(=O)(=O)C=CCNC(=O)c1ccc2c(c1)NC(=O)CC2 | Polyprotein P1234 nsP2 protease domain | protease activity, inhibitor, FRET |  | 90 min, 30 min preincubation |  | IC50 | 1000 nM and < 1500 nM |
| CC[C@H](NC(C)=O)C(=O)N[C@@H](CCCN)C(=O)N[C@@H](CC(C)C)C(=O)N[C@@H](CCC(N)=O)C(=O)Nc1ccc2c(C)cc(=O)oc2c1 | Replicase polyprotein 1ab, main protease (rep, Severe acute respiratory syndrome coronavirus 2, UniProt P0DTD1) | substrate |  |  |  | peak substrate concentration | 3.48 mmol/L |
| C[C@H]1CCC/C=C/C2C[C@H](O)C[C@@]2(O)C/C=C/C(=O)O1 (some centres unmarked) | DNA polymerase theta, ATPase domain (POLQ, Homo sapiens, UniProt O75417) | enzyme activity, inhibitor |  | 77 µM | reference: untreated | remaining activity | 105% |
| CCC(CC)COC(=O)[C@H](C)N[P@](=O)(OC[C@H]1O[C@@](C#N)(c2ccc3c(N)ncnn23)[C@H](O)[C@@H]1O)Oc1ccccc1 | SARS-CoV-2 USA-WA1/2020 | time-of-addition | A549-ACE2 | 10 µM |  | time of addition when activity is lost | 2 h post-infection |
| CCN(Cc1cn(C[C@H]2O[C@@H](n3cnc4c(N)ncnc43)[C@H](O)[C@@H]2O)nn1)S(=O)(=O)c1ccc(Cl)cc1 | Replicase polyprotein 1ab, nsp14 N7-methyltransferase (rep, Severe acute respiratory syndrome coronavirus 2, UniProt P0DTD1) | N7-methyltransferase activity, inhibitor, radioactive filter binding |  | 50 µM, 0.5 h, 30 °C, added: GpppAC4 RNA, SAM |  | remaining binding | > 50% |
| NC(=O)c1ncn([C@@H]2O[C@H](CO)[C@@H](O)[C@H]2O)n1 | Mammarenavirus lassaense | viral replication, inhibitor | Vero | 48 h |  | IC50 | 9 µg/mL |
| CNC(=O)[C@]1(O)C(=O)c2c([nH]c3ccc(Cl)cc23)-c2c(OC)c3cc(Cl)ccc3n21 | SARS-CoV-2 | viral replication, mNeonGreen reporter virus |  | 50 µM |  | inhibition | 4.07% |
| C=CS(=O)(=O)CCC(=O)Nc1ccc(N2CCOCC2)nc1C | Polyprotein P1234 nsP2 protease domain | protease activity, inhibitor, FRET |  | 90 min, 30 min preincubation |  | IC50 | 23000 ± 2000 nM |

A few entries again (study 2):
| Compound | inhibition [%] |
| --- | --- |
| CC(C)=CCOc1ccc(/C=C/C(=O)c2ccc(OCC=C(C)C)cc2OCC(=O)O)cc1 | 5.74 |
| C=CC(=O)Nc1cccc(Oc2nc(Nc3ccc(N4CCN(C)CC4)cc3)ncc2Cl)c1 | 27.3 |
| CN1C(C(=O)Nc2ccccn2)=C(O)c2ccccc2S1(=O)=O | 5.67 |
| NC1(c2ccc(-c3nc4ccn5c(=O)[nH]nc5c4cc3-c3ccccc3)cc2)CCC1 | 4.72 |
| N[C@@H]1C[C@H]1c1ccccc1 (racemic) | -0.3 |
| Oc1ccc2c3c1O[C@H]1c4oc5ccccc5c4C[C@@]4(O)[C@@H](C2)N(CC2CC2)CC[C@]314 | -1.6 |
